{"data": "Published values gathered from unrelated publications", "note": "Each numbered part is a random draw from the data of one study; scales do not carry over between parts."}
{"data": "Block 1", "target": "Replicase polyprotein 1ab, nsp13 helicase (rep, Severe acute respiratory syndrome coronavirus 2, UniProt P0DTD1)", "mode": "inhibitor", "tested at": "20 µM"}
{"SMILES": "O=C(/C=C/c1cccnc1)NCCCCC1CCN(C(=O)c2ccccc2)CC1", "inhibition [%]": 2.28}
{"SMILES": "COC(=O)c1ccc(N2CCN(C)CC2)c(NC(=O)c2cccc(OC)c2)c1", "inhibition [%]": -2.35}
{"SMILES": "O=C(O)C(F)(F)C(F)(F)C(F)(F)C(F)(F)C(F)(F)C(F)(F)C(F)(F)F", "inhibition [%]": 11.7}
{"SMILES": "COc1cc2ncnc(Nc3cccc(Br)c3)c2cc1OC", "inhibition [%]": 9.74}
{"SMILES": "N[C@@H](Cc1c[nH]c2ccccc12)C(=O)O", "inhibition [%]": 7.01}
{"SMILES": "c1ccc2[nH]c(-c3cscn3)nc2c1", "inhibition [%]": 0.13}
{"SMILES": "FC(F)(F)c1cc(NC(=S)Nc2ccc(Br)cc2-c2nn[nH]n2)cc(C(F)(F)F)c1", "inhibition [%]": 2.51}
{"SMILES": "COCCOC(=O)C1=C(C)NC(C)=C(C(=O)OC(C)C)C1c1cccc([N+](=O)[O-])c1 (stereo not drawn)", "inhibition [%]": 4.98}
{"SMILES": "Cc1ccc2c(c1CCC(=O)O)CC[C@@H](NS(=O)(=O)c1ccc(Cl)cc1)C2", "inhibition [%]": -0.56}
{"SMILES": "C/C(=N\\NC(=O)C(NC(=O)c1ccccc1)c1n[nH]c(=O)c2ccccc12)c1cccc(Br)c1 (stereo not drawn)", "inhibition [%]": 5.49}
{"SMILES": "Cc1ccc(NC(=O)CCCCCC(=O)Nc2ccccc2N)cc1", "inhibition [%]": 2.69}
{"SMILES": "C[C@@H]1CC[C@H]2[C@@H](C)C(=O)O[C@@H]3O[C@@]4(C)CC[C@@H]1[C@]32OO4", "inhibition [%]": 0.44}
{"SMILES": "Nc1ccc(-c2nc3ccc(-c4nc5ccc(N)cc5[nH]4)cc3[nH]2)cc1", "inhibition [%]": 24}
{"SMILES": "CN(C)C(=O)c1ccc(S(=O)(=O)c2ccc(NC(=O)[C@@](C)(O)C(F)(F)F)c(Cl)c2)cc1", "inhibition [%]": -3.05}
{"SMILES": "CCCCCCCC(=O)N[C@H](CN1CCCC1)[C@H](O)c1ccc2c(c1)OCCO2", "inhibition [%]": 7.8}
{"SMILES": "O=C(NCCCN1CCC2(CC1)OCc1ccccc12)[C@H]1CCCN1Cc1ccccc1", "inhibition [%]": -1.18}
{"SMILES": "CCOC(=O)[C@@](C)(N)Cc1ccc(O)c(O)c1", "inhibition [%]": 3.56}
{"SMILES": "CN(C)CCc1c[nH]c2ccc(CS(=O)(=O)N3CCCC3)cc12", "inhibition [%]": -2.93}
{"data": "Block 2", "target": "TAR DNA-binding protein 43, full length, His tag (TARDBP, Homo sapiens, UniProt Q13148, residues 1-414)", "method": "RNA Bind-n-Seq", "form": "RNA", "medium": "in vitro", "tested at": "20 nM", "notes": "6-mer, flanks averaged, single round", "with": "150 mM LiCl", "reference": "input library", "direction": "higher = stronger binding"}
{"Sequence": "UGCAUG", "6-mer enrichment (R)": 1.24}
{"Sequence": "UAUGGG", "6-mer enrichment (R)": 1.29}
{"Sequence": "AGAUUA", "6-mer enrichment (R)": 0.83}
{"Sequence": "UAGAUC", "6-mer enrichment (R)": 0.863}
{"data": "Block 3", "target": "Ras GTPase-activating protein-binding protein 1, full length (G3BP1, Homo sapiens, UniProt Q13283)", "method": "RNA Bind-n-Seq", "form": "RNA", "medium": "in vitro", "tested at": "200 nM", "notes": "whole 134-nt RNA, ends assumed", "with": "150 mM KCl", "reference": "input library", "direction": "higher = stronger binding", "all sequences stand within": "GGGAGUUCUACAGUCCGACGAUC … UGGAAUUCUCGGGUGUCAAGG", "chain of UniProt Q13283 (whole entry, looked up)": "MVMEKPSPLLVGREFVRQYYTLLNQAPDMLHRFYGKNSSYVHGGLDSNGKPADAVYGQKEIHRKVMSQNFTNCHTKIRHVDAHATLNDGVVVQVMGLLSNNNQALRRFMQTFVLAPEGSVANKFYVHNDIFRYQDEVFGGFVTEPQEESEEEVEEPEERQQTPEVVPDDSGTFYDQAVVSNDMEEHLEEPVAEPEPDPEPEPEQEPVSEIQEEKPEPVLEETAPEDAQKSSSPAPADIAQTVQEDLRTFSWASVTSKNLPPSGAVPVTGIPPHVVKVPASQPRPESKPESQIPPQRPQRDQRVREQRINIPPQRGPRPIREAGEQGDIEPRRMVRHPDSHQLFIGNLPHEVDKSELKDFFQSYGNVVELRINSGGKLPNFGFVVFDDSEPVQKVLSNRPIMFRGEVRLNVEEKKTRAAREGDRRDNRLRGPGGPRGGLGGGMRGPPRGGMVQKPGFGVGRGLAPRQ"}
{"Sequence": "UCCUGUGCUACACAUCGUAUGUACCGAAUCGGGGUUUUUUGGUUUUUUGGUUUUUUGGGAAAGUAUUAUGUUACGCCGUUCGGAUCUGCA", "log2 enrichment": -0.821}
{"Sequence": "UCAAGUCCUGUGCUACACAUCGUAUGUACCGAAUCGGGAAGGAAGGGGAAGGGGAAAGUAUUAUGUUACGCCGUUCGGAUCUGCACUUCC", "log2 enrichment": 0.925}
{"Sequence": "UGGCCCUGGUGGCAUGCGGGGAGGAAGAGGUGGCCUCAUGGAUCGUGGUGGUCCCGGUGGAAUGGUCAGAGGUGGCCGUGGUGGAGACAG", "log2 enrichment": 0.0839}
{"Sequence": "AAGUCCUGUGCUACACAUCGUAUGUACCGAAUCGGGUUUGGGAGGGUUUUUUUGGGAAAGUAUUAUGUUACGCCGUUCGGAUCUGCACUU", "log2 enrichment": 0.0977}
{"Sequence": "CCUCAAGUCCUGUGCUACACAUCGUAUGUACCGAAUCGGGAGGGGAGGGGAGGAAAGUAUUAUGUUACGCCGUUCGGAUCUGCACUUCCA", "log2 enrichment": 0.695}
{"Sequence": "ACCAUGCAGGUGGGCAUCUUUGGGAAGUGGGGCAAGGGGGGGAUAGGGAGGGGGGUAACACUUUGGGCACAGGUGGUCCCAGGUCGUUUC", "log2 enrichment": 0.922}
{"Sequence": "UUUGCUGAUUUCUGGCUGGCGGAUCAGCUGAACAGCCUGUCAGUGAUACUGAUGGACCUGGAAUAUAUGAUCUGCUUCUACAGUUUGGAG", "log2 enrichment": -2.45}
{"Sequence": "CCUCAAGUCCUGUGCUACACAUCGUAUGUACCGAAUCGGGGCGGGCGGGCGGGAAAGUAUUAUGUUACGCCGUUCGGAUCUGCACUUCCA", "log2 enrichment": 1.29}
{"data": "Block 4", "cell line": "HEK-293T/ACE2", "observed": "pseudovirus infection", "organism": "VSV pseudotyped with SARS-CoV-2 spike", "tested at": "concentration not given", "reference": "vehicle-treated"}
{"SMILES": "CCOc1cc([C@@H](CS(C)(=O)=O)N2C(=O)c3cccc(NC(C)=O)c3C2=O)ccc1OC", "GFP-positive cells [%]": 80.1}
{"SMILES": "C/C=C1\\NC(=O)[C@H]2CSSCC/C=C/[C@H](CC(=O)N[C@H](C(C)C)C(=O)N2)OC(=O)[C@H](C(C)C)NC1=O", "GFP-positive cells [%]": 37.5}
{"SMILES": "CC1(C)CCC(CN2CCN(c3ccc(C(=O)NS(=O)(=O)c4ccc(NCC5CCOCC5)c([N+](=O)[O-])c4)c(Oc4cnc5[nH]ccc5c4)c3)CC2)=C(c2ccc(Cl)cc2)C1", "GFP-positive cells [%]": 4.48}
{"SMILES": "CN(C)C/C=C/C(=O)Nc1cc2c(Nc3ccc(F)c(Cl)c3)ncnc2cc1O[C@H]1CCOC1.O=C(O)/C=C\\C(=O)O.O=C(O)/C=C\\C(=O)O", "GFP-positive cells [%]": 47.8}
{"data": "Other studies, line by line", "target": "Replicase polyprotein 1ab, main protease (rep, Severe acute respiratory syndrome coronavirus 2, UniProt P0DTD1)", "observed": "enzyme activity", "mode": "inhibitor"}
{"SMILES": "COc1cc(C(=S)N2CCOCC2)ccc1O", "conditions": "20 µM, hit confirmation", "quantity": "inhibition", "value": "99.4%"}
{"SMILES": "COc1ccc(C(=O)n2nc(-c3ccccc3)nc2N)cc1OC", "system": "SARS-CoV-2", "conditions": "with: DTT", "quantity": "IC50", "value": "30.2 µM"}
